Results gathered from unrelated publications.
Numbered parts are unrelated; each lists some results of a single study. Positions count from the first letter of the parent shown.

Study 1 — target: CCNF, cyclin fold, Cln2 fusion (human); method: yeast growth competition, sequencing; medium: yeast; setting: strong parent motif; reference: not given; direction: higher = stronger binding
Starting sequence: GMNC docking peptide (human); KNAKRNLSSEFAN
Under “normalised enrichment score”, `KNAKRNTSSEFAN [L7T]` is recorded as 0.805.
Under “normalised enrichment score”, `KNAKRNLSEEFAN [S9E]` is recorded as 0.633.
Under “normalised enrichment score”, `KNAKRNLSSELAN [F11L]` is recorded as 1.
`KNAKRNLSSEFTN [A12T]` — result for “normalised enrichment score”: 0.939.
`KFAKRNLSSEFAN [N2F]`: “normalised enrichment score” 1.02.
For `KNRKRNLSSEFAN [A3R]`, “normalised enrichment score” read 0.421.
Under “normalised enrichment score”, `KNAKRNLSGEFAN [S9G]` is recorded as 0.228.
Under “normalised enrichment score”, `KNAKRNLSFEFAN [S9F]` is recorded as 3.95.
`KNAKRKLSSEFAN [N6K]` — result for “normalised enrichment score”: 0.595.
For `KNAKRRLSSEFAN [N6R]`, “normalised enrichment score” read 0.409.
Under “normalised enrichment score”, `KNAKRNRSSEFAN [L7R]` is recorded as -0.0182.
For `KNAKRNLSSEFYN [A12Y]`, “normalised enrichment score” read 0.515.
`KNAKRNLSSEYAN [F11Y]` — result for “normalised enrichment score”: 0.58.
Under “normalised enrichment score”, `KNAKRNLSSIFAN [E10I]` is recorded as 1.1.
Under “normalised enrichment score”, `KNAKRNLGSEFAN [S8G]` is recorded as 1.02.
`KNAKRNLSSEFNN [A12N]`: “normalised enrichment score” 0.779.

Study 2 — method: protein binding microarray; form: double-stranded DNA, one strand shown; medium: in vitro; concentration: not given; reference: not given; direction: higher = stronger binding
Target: Histone acetyltransferase KAT6A, both winged helices, GST fusion (KAT6A, Homo sapiens, UniProt Q92794, residues 1-181)
Setting: 8-mer, flanks averaged, mean of 2 arrays, mostly near background
Construct (chain): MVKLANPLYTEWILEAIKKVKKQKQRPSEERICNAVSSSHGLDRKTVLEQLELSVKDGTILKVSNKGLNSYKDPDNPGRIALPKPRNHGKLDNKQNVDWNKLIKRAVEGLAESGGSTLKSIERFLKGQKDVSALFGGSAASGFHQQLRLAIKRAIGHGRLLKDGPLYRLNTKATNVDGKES
With `GCTCTTAC` the E-score was 0.0236.
`GGACCACA` has an E-score of -0.124.
`TTTACAAA` gave an E-score of -0.0221.
With `AAACGGCT` the E-score was 0.179.
For `ATATAATC`, the E-score was -0.0348.
For `ACCTGAGG`, the E-score was -0.138.
`GTACGTAA` gave an E-score of -0.052.
The E-score of `ACCTATGC` is reported as 0.0535.
With `CATCCCAG` the E-score was -0.305.
The E-score of `AGCACCTA` is reported as -0.104.
For `ACTATGGG`, the E-score was -0.222.
The E-score of `ACGATGGA` is reported as 0.0345.
`GGCTGATA` has an E-score of 0.0378.
The E-score of `GAAAGCAC` is reported as -0.144.
The E-score of `ACGACCTC` is reported as -0.05.
`ATCCGCGG` gave an E-score of 0.319.
`GATGAGTA` has an E-score of -0.27.
`ATGTCGTG` gave an E-score of -0.112.
The E-score of `ACTCCCCT` is reported as -0.219.
The E-score of `ATGGCATA` is reported as -0.133.
`CAGTGGCG` has an E-score of 0.0859.
The E-score of `CTGTGCGC` is reported as 0.289.
For `AAAAGTGG`, the E-score was -0.151.
`ACACGTAC` has an E-score of -0.0221.
`GCTCTTCC` has an E-score of 0.0614.

Study 3 — target: UBE2J2 UBC core domain (UniProt Q8N2K1); method: yeast two-hybrid; medium: yeast; setting: mostly zero background; reference: not given; direction: higher = stronger interaction
B1: TRAF5 RING domain (UniProt O00463); chain FVERLEERYKCAFCHSVLHNPHQTGCGHRFCQHCILSLRELNTVPICPVDKEVIKSQEVFK
B2: TRIM40 RING domain (UniProt Q6P9F5); chain LQKDNQEEGVCPICQESLKEAVSTNCGHLFCRVCLTQHVEKASASGVFCCPLCRKPCSEEVLG
B3: SH3RF2 RING domain (UniProt Q8TEC5); chain DDLTLLDLLECPVCFEKLDVTAKVLPCQHTFCKPCLQRVFKAHKELRCPECRTPVFSNIEAL
B4: NEURL1 RING domain (UniProt O76050); chain VTPGLGQWSDECTICYEHAVDTVIYTCGHMCLCYACGLRLKKALHACCPICRRPIKDIIKT
B5: TRIML1 RING domain (UniProt Q8N9V2); chain LMENLREELTCFICLDYFSSPVTTECGHSFCLVCLLRSWEEHNTPLSCPECWRTLEGPHFQS
B6: TRIM24 RING domain (UniProt O15164); chain EAARLNLLDTCAVCHQNIQSRAPKLLPCLHSFCQRCLPAPQRYLMLPAPMLGSAETPPPVPAPGSPVSGSSPFATQVGVIRCPVCSQECAERHII
B7: VPS41 RING domain (UniProt P49754); chain KGVLVDEENICESCLSPILPSDAAKPFSVVVFHCRHMFHKECLPMPSMNSAAQFCNICSAKNRGPGSAI
B8: DTX4 RING domain (UniProt Q9Y2E6); chain QKVRHPPDEDCTICMERLTAPSGYKGPQPTVKPDLVGKLSRCGHVYHIYCLVAMYNNGNKDGSLQCPTCKTIYGVKTGTQ
B9: TRIM5 RING domain (UniProt Q9C035); chain ILVNVKEEVTCPICLELLTQPLSLDCGHSFCQACLTANHKKSMLDKGESSCPVCRISYQPENIRP
Construct (chain): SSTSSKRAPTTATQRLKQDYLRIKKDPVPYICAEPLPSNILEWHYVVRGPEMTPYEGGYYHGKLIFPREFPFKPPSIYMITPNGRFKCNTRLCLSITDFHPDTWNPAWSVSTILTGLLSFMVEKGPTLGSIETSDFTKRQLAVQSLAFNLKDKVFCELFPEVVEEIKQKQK
For `B1 (TRAF5 RING domain)`, “lacZ reporter activity” read 0.
`B2 (TRIM40 RING domain)`: “lacZ reporter activity” 0.
`B3 (SH3RF2 RING domain)` — result for “lacZ reporter activity”: 0.
For `B4 (NEURL1 RING domain)`, “lacZ reporter activity” read 13100.
Under “lacZ reporter activity”, `B5 (TRIML1 RING domain)` is recorded as 0.
`FQGDVDEDLICPICSGVLEEPVQAPHCEHAFCNACITQWFSQQQTCPVDRSVVTVAHLRP (RNF41 RING domain (UniProt Q9H4P4))` — result for “lacZ reporter activity”: 1070.
For `GAAPGPEAAECLVCSELALLVLFSPCQHRTVCEECARRMKKCIRCQVVVSKKLRPD (MIB2 RING domain (UniProt Q96AX9))`, “lacZ reporter activity” read 9660.
`B6 (TRIM24 RING domain)` — result for “lacZ reporter activity”: 0.
For `B7 (VPS41 RING domain)`, “lacZ reporter activity” read 0.
`B8 (DTX4 RING domain)`: “lacZ reporter activity” 0.
Under “lacZ reporter activity”, `B9 (TRIM5 RING domain)` is recorded as 0.

Study 4 — method: RNA Bind-n-Seq; form: RNA; medium: in vitro; concentration: not given; reference: input RNA pool; direction: higher = stronger binding
Target: RING finger protein unkempt homolog, zinc fingers 1-6, GST-SBP tag (UNK, Homo sapiens, UniProt Q9C0B0, residues 30-357)
Setting: RNA with constant flanks, human and mouse sites, ends assumed
Construct (chain): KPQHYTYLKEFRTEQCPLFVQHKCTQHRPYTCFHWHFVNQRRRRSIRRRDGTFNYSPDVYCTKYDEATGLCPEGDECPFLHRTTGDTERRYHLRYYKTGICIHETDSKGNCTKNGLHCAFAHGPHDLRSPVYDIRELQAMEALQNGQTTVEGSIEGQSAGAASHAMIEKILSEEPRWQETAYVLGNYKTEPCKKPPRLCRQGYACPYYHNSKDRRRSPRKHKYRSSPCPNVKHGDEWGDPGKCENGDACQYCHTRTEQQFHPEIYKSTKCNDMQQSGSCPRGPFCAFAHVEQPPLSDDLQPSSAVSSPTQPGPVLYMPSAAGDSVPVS
With `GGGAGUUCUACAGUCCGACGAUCCUGACCCAUAAUAAUGGAAAGUUUAACAGUGACUCACAUUCUCCUAAAGUUUCCAGCCAGAAUAGGACACGCUUAUUUGGUCAUUUUCCCGGGCCAGAGUUCUUGGACAUAGAGAAAACUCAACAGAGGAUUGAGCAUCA` the bound/input enrichment was 0.464 ratio.
`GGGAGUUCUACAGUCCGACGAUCAGCAGCUCCAGUCAGUCUCAGUCAUCUUACAUCAUUCGGAACCCACAGCAGAGGCGCAUCAGCCAGUCACAGCCCGUCAGAGGCCGAGACGAGGAGCAGGAUGAUAUUGUGUCAGCAGACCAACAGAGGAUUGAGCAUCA` has a bound/input enrichment of 0.073 ratio.
`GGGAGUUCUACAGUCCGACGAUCCUGGCAUCUGUGAAGAUUUCUAAAGUGAAAUACGUUAUCUGGUCAGCAGACAUGUCACAUGUAGCACUACUAGCCAAACACGCCAUUGUGAUCUGUAACCGCAAACUGGAUGCUUUAUGUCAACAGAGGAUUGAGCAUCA` gave a bound/input enrichment of 0.172 ratio.
`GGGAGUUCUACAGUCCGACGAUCCCGCGGCUUGCCGGAAGUGGGCAGGGCGGCAGCGGCUGCUCUUGGCGGCCCCGAGGUGACUAUAGCCUUCUUUUGUGUCUUGAUAGUUCGCCAUGGAUGACGAUAUCGCUGCGCUGGUCGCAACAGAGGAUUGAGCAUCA` has a bound/input enrichment of 0.174 ratio.
`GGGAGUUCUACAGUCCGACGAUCGUCGCGGAACAGCAGGCCCGAGCCCACCGCGCCGGGCCCCGGACGCCGCGCGGAAAAGAUGAAUUUACAACCAAUUUUCUGGAUUGGACUGAUCAGUUCAGUUUGCUGUGUGUUUGCUCACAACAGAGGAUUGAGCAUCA` has a bound/input enrichment of 0.127 ratio.
For `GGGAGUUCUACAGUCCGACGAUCGAGAAACAAUGAAUAGUACAUGUAUAUGUAUAUUUUUAAACUGCCUUAUUGCUCAAUGAGUUGCUGUUCCUGGAGUAUCUAACUUUCAGUUUACUCAAAAACUUUUGGGUAAAUAAAAAACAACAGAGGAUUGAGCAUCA`, the bound/input enrichment was 0.5 ratio.
`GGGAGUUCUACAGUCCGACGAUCUCCACGCCUGAGUUCUACCAAGUAUGCCACACCAAAAAGGAUUAUGAAGAAAUUGGACCUAGCAUUUGUCGUCACAAUCCAGUGUUUGGAGUCAUGUCGUAAAAUUGGCUUCAUAGUUAUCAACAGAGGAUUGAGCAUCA` has a bound/input enrichment of 8.8 ratio.
`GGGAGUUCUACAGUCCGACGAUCCCAGAUAACCCGGGUUCUAUUCACAGGGCCCAGUUCCAAGGGCACUGCACACAGUGAUGCAUAGAUGUAUGCAGGCAAAACACCCAUUCACAUAAAAUAAAAUGAUCUUUAAAAAAUACUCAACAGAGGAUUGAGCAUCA` has a bound/input enrichment of 0.556 ratio.
With `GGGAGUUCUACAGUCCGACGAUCGCUAGGGCAGGGCGGGGGCUCCGGCGCUCGGGCGCGCUGGACCUCGGGGCGCGGGCGGGCGAGGGUGGCAGGAGGGCGGCGAGGGCAAGGGAGGGGACCCGAGGCUGCCUCUCCGCCAGCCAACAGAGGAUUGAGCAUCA` the bound/input enrichment was 1.32 ratio.
With `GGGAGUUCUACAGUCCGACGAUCUCUAGAAUGUCUUCAACUAAAUCAAGUGGAAGUGAAUCUGAUAGAUCAGAAAGACCUGUAUUAGUACGCCAGUCAACUUUCAUCAAAGAAGCUCCAAGCCCAACCUUAAGAAGAAAAUUGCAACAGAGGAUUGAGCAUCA` the bound/input enrichment was 0.185 ratio.
`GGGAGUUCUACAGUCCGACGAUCGACCCACAGUGGUCUGAGGAACAGCUGAUUGCUGCAAAAUUUUGCUUUGCUGGACUUCUUAUAGGCCAGACUGAAGUGGAUAUCAUGAGUCAUGCUACACAGGCUAUAUUUGAAAUACUGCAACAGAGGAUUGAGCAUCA` has a bound/input enrichment of 0.18 ratio.

Excerpt of the above (study 3):
`B6 (TRIM24 RING domain)` — result for “lacZ reporter activity”: 0.
`FQGDVDEDLICPICSGVLEEPVQAPHCEHAFCNACITQWFSQQQTCPVDRSVVTVAHLRP (RNF41 RING domain (UniProt Q9H4P4))` — result for “lacZ reporter activity”: 1070.
`B3 (SH3RF2 RING domain)` — result for “lacZ reporter activity”: 0.
For `B7 (VPS41 RING domain)`, “lacZ reporter activity” read 0.
Under “lacZ reporter activity”, `B9 (TRIM5 RING domain)` is recorded as 0.
Under “lacZ reporter activity”, `B5 (TRIML1 RING domain)` is recorded as 0.
